Experimental data collected from several papers.
Compare with care: the assays were run in different laboratories.

Compound | cell line | observed | technique | time | notes | CC50
CCN(CC)CCCC(C)Nc1cc[n+]([Ru-]([OH2+])[OH2+])c2cc(Cl)ccc12.Cc1ccc(C(C)C)cc1.F[B-](F)(F)F.F[B-](F)(F)F (stereo not drawn) | Jurkat | cytotoxicity | – | – | – | 81 µM
Cc1ccc(S(=O)(=O)Nn2c3c(cc(-c4nc5ccccc5s4)c2=O)CCCCCC3)cc1 | BGM | cell growth or viability | trypan blue | – | – | 280 µg/mL
COC(=O)C1C(C=NN=CC2=Cc3cc4c(cc3C(c3cc(OC)c(OC)c(OC)c3)C2C(=O)OC)OCO4)=Cc2cc3c(cc2C1c1cc(OC)c(OC)c(OC)c1)OCO3 (stereo not drawn) | mouse Splenocyte | cell growth or viability | resazurin | 48 h | – | > 100 µM
C=C(C)[C@@H]1CC[C@]2(C(=O)n3ccnc3)CC[C@]3(C)[C@H](CC[C@@H]4[C@@]5(C)CCCNC(C)(C)[C@@H]5CC[C@]43C)[C@@H]12 | primary HFF | cell viability | CellTiter-Glo | – | HSV-1 assay setting | 6.14 µM
COc1ccc(OC(=O)/C=C/C#N)cc1 | J774.A1 | cell growth or viability | resazurin | 24 h | – | 38.8 µM
CC1(C)CC[C@]2(CO)CC[C@]3(C)C(=CC[C@@H]4[C@@]5(C)CCCNC(C)(C)[C@@H]5CC[C@]43C)[C@@H]2C1 | primary HFF | cell viability | CellTiter-Glo | – | HSV-1 assay setting | 2.78 µM
COc1cc(C2c3cc4c(cc3C=C(C=O)C2C(=O)OCC=Cc2ccccc2)OCO4)cc(OC)c1OC (stereo not drawn) | mouse Splenocyte | cell growth or viability | resazurin | 48 h | – | > 100 µM
COc1ccc(C2OC(=O)c3ccc(-c4ccccc4)c(O)c32)c(OC)c1OC (stereo not drawn) | J774.A1 | cell growth or viability | resazurin | 24 h | – | ≥ 510 µM
COc1cc([C@@H]2c3cc4c(cc3C=C(C=O)[C@H]2C(=O)N2CCCC2)OCO4)cc(OC)c1OC | mouse Splenocyte | cell growth or viability | resazurin | 48 h | – | 80.1 µM
CC(C)(C)c1ccc(OC(=O)/C=C/C#N)cc1 | J774.A1 | cell growth or viability | resazurin | 24 h | – | 79.5 µM
CCCCCc1ccc2c(c1O)C(c1ccc(OC)c(OC)c1OC)OC2=O (stereo not drawn) | J774.A1 | cell growth or viability | resazurin | 24 h | – | ≥ 129 µM
C=C(C)[C@@H]1CCC=C2CC[C@]3(C)[C@H](CC[C@@H]4[C@@]5(C)CCCNC(C)(C)[C@@H]5CC[C@]43C)[C@H]21 | primary HFF | cell viability | CellTiter-Glo | – | HCMV AD169 assay setting | 15.3 µM
COc1cc(C2c3cc4c(cc3C(C(C)C)C3COC(=O)C23)OCO4)cc(OC)c1OC (stereo not drawn) | mouse Splenocyte | cell growth or viability | resazurin | 48 h | – | 0.4 µM
C[C@H]1[C@H](C)CC[C@]2(CO)CC[C@]3(C)C(=CC[C@@H]4[C@@]5(C)CCCNC(C)(C)[C@@H]5CC[C@]43C)[C@H]12 | C-33 A | cell viability | CellTiter-Glo | – | – | 3.32 µM
COc1ccc(C2OC(=O)c3ccc(C)c(O)c32)cc1OC (stereo not drawn) | J774.A1 | cell growth or viability | resazurin | 24 h | – | ≥ 333 µM
Cc1ccc(S(=O)(=O)Nn2c3c(cc(-c4nc5ccccc5s4)c2=O)CCCC3)cc1 | FRhK-4 | cell growth or viability | trypan blue | – | – | 320 µg/mL
COc1ccc(C2OC(=O)c3cccc(O)c32)c(OC)c1OC (stereo not drawn) | J774.A1 | cell growth or viability | resazurin | 24 h | – | ≥ 316 µM
CC1(C)NCCC[C@]2(C)[C@H]3CC=C4[C@@H]5C[C@@](C)(CO)CC[C@]5(C)CC[C@@]4(C)[C@]3(C)CC[C@@H]12 | primary HFF | cell viability | CellTiter-Glo | – | HSV-1 assay setting | 10.6 µM
CCc1ccc2c(c1O)C(c1ccc(OC)c(OC)c1OC)OC2=O (stereo not drawn) | J774.A1 | cell growth or viability | resazurin | 24 h | – | ≥ 290 µM
O=c1c(-c2nc3ccccc3s2)cc2c(n1NS(=O)(=O)c1ccc(Cl)cc1)CCCCCC2 | BGM | cell growth or viability | trypan blue | – | – | 310 µg/mL
COc1ccc(C2OC(=O)c3ccc(C(C)C)c(O)c32)cc1OC (stereo not drawn) | J774.A1 | cell growth or viability | resazurin | 24 h | – | ≥ 305 µM
C=C(C)[C@@H]1CC[C@]2(C(N)=O)CC[C@]3(C)[C@H](CC[C@@H]4[C@@]5(C)CCCNC(C)(C)[C@@H]5CC[C@]43C)[C@@H]12 | primary HFF | cell viability | CellTiter-Glo | – | HSV-1 assay setting | 12.8 µM
Nc1nc2c(ncn2[C@H]2C[C@H](O)[C@@H](CO)/C2=C\F)c(=O)[nH]1 | HepG2.2.15 | cell growth or viability | CCK-8 | 14 days | – | 83 µM
CCCc1ccc2c(c1O)C(c1ccc(OC)c(OC)c1)OC2=O (stereo not drawn) | J774.A1 | cell growth or viability | resazurin | 24 h | – | ≥ 152 µM

A few entries again:
Compound | cell line | observed | technique | time | notes | CC50
CC1(C)CC[C@]2(CO)CC[C@]3(C)C(=CC[C@@H]4[C@@]5(C)CCCNC(C)(C)[C@@H]5CC[C@]43C)[C@@H]2C1 | primary HFF | cell viability | CellTiter-Glo | – | HSV-1 assay setting | 2.78 µM
COc1cc(C2c3cc4c(cc3C=C(C=O)C2C(=O)OCC=Cc2ccccc2)OCO4)cc(OC)c1OC (stereo not drawn) | mouse Splenocyte | cell growth or viability | resazurin | 48 h | – | > 100 µM
